Results pooled from the literature.
Compare with care: the assays were run in different laboratories. pIC50: −log10 of the molar value.
Organism: Pseudomonas aeruginosa

Compound	test	test system	setting	how to read	quantity	result
C#CCOc1ccc(CN[C@@]2(C)C[C@H](O[C@H]3[C@H](Oc4c5cc6cc4Oc4ccc(cc4Cl)[C@@H](O)[C@@H](NC(=O)[C@@H](CC(C)C)NC)C(=O)N[C@@H](CC(N)=O)C(=O)N[C@H]6C(=O)N[C@H]4C(=O)N[C@H](C(=O)N[C@H](C(=O)NCC(N)=O)c6cc(O)cc(O)c6-c6cc4ccc6O)[C@H](O)c4ccc(c(Cl)c4)O5)O[C@H](CO)[C@@H](O)[C@@H]3O)O[C@@H](C)[C@H]2O)cc1OC	broth microdilution	ATCC 10145, cation-adjusted Mueller-Hinton broth	18 to 20 h, 37 °C, 0.002% polysorbate 80		MIC	> 128 µg/mL
Nc1nc2ccc(Oc3cc[nH]c(=O)c3)cc2s1	swarming area, modified FAB agar	PA14-lux	200 µM, 24 h	relative to: DMSO vehicle	inhibition	80%
CN[C@H](CC(C)C)C(=O)N[C@H]1C(=O)N[C@@H](CC(N)=O)C(=O)N[C@H]2C(=O)N[C@H]3C(=O)N[C@H](C(=O)N[C@H](C(=O)N[C@@H](CCCNC(=N)N)C(N)=O)c4cc(O)cc(O)c4-c4cc3ccc4O)[C@H](O)c3ccc(c(Cl)c3)Oc3cc2cc(c3O[C@@H]2O[C@H](CO)[C@@H](O)[C@H](O)[C@H]2O[C@H]2C[C@](C)(NCc3ccc(OCc4cn(CC(=O)N[C@H](C(=O)N[C@@H](CCN)C(=O)N[C@H]5CCNC(=O)[C@H]([C@@H](C)O)NC(=O)[C@H](CCN)NC(=O)[C@H](CCN)NC(=O)[C@H](CC(C)C)NC(=O)[C@@H](CC(C)C)NC(=O)[C@H](CCN)NC5=O)[C@@H](C)O)nn4)c(OC)c3)[C@H](O)[C@H](C)O2)Oc2ccc(cc2Cl)[C@H]1O	broth microdilution	ATCC 25922, cation-adjusted Mueller-Hinton broth			MIC	6 µM
C[C@@H](N)[C@H](O)CCCCCCCC(=O)CCCCCCCCCCCCCC[C@@H](O[C@@H]1O[C@H](CO)[C@@H](O)[C@H](O)[C@H]1O)[C@@H](N)CO	microbial growth, resazurin	ATCC27853	50 µM		inhibition	99%
CCC(=O)OCCSCCC(=O)N[C@H](CCN)C(=O)N[C@@H](CCN)C(=O)N[C@@H](CCN)C(=O)N[C@@H](CC(C)C)C(=O)N[C@H](Cc1ccccc1)C(=O)N[C@@H](CCN)C(=O)N[C@@H](CCN)C(=O)N[C@@H](CC(C)C)C(N)=O		PAO1	24 h, 37 °C		MBC	> 128 µM
N=C(N)NCCC[C@@H]1NC(=O)[C@H](CCCNC(=N)N)NC(=O)[C@@H](CCCNC(=N)N)NC(=O)[C@H](C(c2ccccc2)c2ccccc2)NC(=O)[C@H](C(c2ccccc2)c2ccccc2)NC(=O)[C@H](C(c2ccccc2)c2ccccc2)NC(=O)[C@H](CCCNC(=N)N)NC1=O		1188712, multidrug-resistant			MIC	32 µg/mL
Nc1nc2ccc(C(F)(F)F)cc2s1	pyocyanin production	PA14-lux	200 µM, 18 h	relative to: DMSO vehicle	inhibition	26%
CC[C@H](C)[C@H](NC(=O)[C@H](CCCCN)NC(=O)[C@H](CCCNC(=N)N)NC(=O)CNC(=O)[C@@H](NC(=O)CN)C(C)C)C(=O)NCC(=O)N[C@@H](Cc1ccccc1)C(=O)N[C@@H](CCCCN)C(=O)N[C@@H](CCCCN)C(=O)N[C@H](C(=O)N[C@@H](CC(C)C)C(=O)N[C@@H](Cc1ccccc1)C(=O)N[C@@H](Cc1ccccc1)C(=O)N[C@@H](Cc1ccccc1)C(=O)N[C@@H](CCCCN)C(=O)N[C@@H](CCCCN)C(=O)NCC(=O)N[C@@H](Cc1ccc(O)cc1)C(=O)N[C@@H](CCC(=O)O)C(=O)N[C@@H](CCCCN)C(=O)N[C@@H](C)C(=O)N[C@@H](CC(N)=O)C(=O)NCC(=O)NCC(=O)N[C@@H](Cc1ccccc1)C(=O)N[C@H](C(=O)N[C@@H](CCCCN)C(=O)N[C@@H](CCCCN)C(=O)N[C@@H](CCCCN)C(=O)NCC(=O)O)C(C)C)C(C)C	broth microdilution, agar subculture	ATCC 9721, CaMHB			MBC	> 1020 µM
C#CCNC(=O)[C@H]1NC(=O)[C@H]2NC(=O)[C@H](NC(=O)[C@@H]3NC(=O)[C@H](CC(N)=O)NC(=O)[C@H](NC(=O)[C@@H](CC(C)C)NC)[C@H](O)c4ccc(c(Cl)c4)Oc4cc3cc(c4O[C@@H]3O[C@H](CO)[C@@H](O)[C@H](O)[C@H]3O[C@H]3C[C@](C)(N)[C@H](O)[C@H](C)O3)Oc3ccc(cc3Cl)[C@H]2O)c2ccc(O)c(c2)-c2c(O)cc(O)cc21	broth microdilution	ATCC 17978, cation-adjusted Mueller-Hinton broth			MIC	86 µM
CC(C)[C@H]1NC(=O)[C@H](Cc2ccccc2)NC(=O)[C@@H](C(C)C)NC(=O)[C@@H](C)NC(=O)[C@H](CO)NC(=O)[C@@H](Cc2c(-c3ccc(-c4ccc5ccccc5c4)cc3)[nH]c3ccccc23)NC(=O)[C@@H](CO)NC1=O	broth dilution				MIC90	> 50 µM
CC(C)C[C@H](NC(=O)[C@H](CS)NC(=O)[C@H](CCCCN)NC(=O)CCNC(=O)CCCCCNC(=O)[C@H](CCCNC(=N)N)NC(=O)CCCCCNC(=O)[C@H](CCCNC(=N)N)NC(=O)[C@H](CCCNC(=N)N)NC(=O)CCCCCNC(=O)[C@H](CCCNC(=N)N)NC(=O)[C@H](CCCNC(=N)N)NC(=O)CCCCCNC(=O)[C@H](CCCNC(=N)N)NC(=O)[C@H](CCCNC(=N)N)NC(=O)CCCCCNC(=O)[C@@H](N)CCCNC(=N)N)C(=O)N[C@H](C(=O)N[C@@H](CCCCN)C(=O)N[C@@H](CO)C(=O)N[C@@H](Cc1ccc(O)cc1)C(=O)N[C@H](C(=O)N[C@@H](CO)C(=O)N[C@@H](CS)C(=O)N[C@@H](CCCCN)C(=O)O)[C@@H](C)O)[C@@H](C)O	crystal violet	ATCC 27853	6 µM		biofilm biomass reduction	~40%
Nc1nc2ccc(Oc3ccncc3)cc2s1	swarming area	PA14-lux	200 µM, 24 h	relative to: DMSO	swarming inhibition	39.6%
CN[C@H](CC(C)C)C(=O)N[C@H]1C(=O)N[C@@H](CC(N)=O)C(=O)N[C@H]2C(=O)N[C@H]3C(=O)N[C@H](C(=O)N[C@H](C(=O)NCc4cn(CCCCC(=O)N[C@H](C(=O)N[C@@H](CCN)C(=O)N[C@H]5CCNC(=O)[C@H]([C@@H](C)O)NC(=O)[C@H](CCN)NC(=O)[C@H](CCN)NC(=O)[C@H](CC(C)C)NC(=O)[C@@H](CC(C)C)NC(=O)[C@H](CCN)NC5=O)[C@@H](C)O)nn4)c4cc(O)cc(O)c4-c4cc3ccc4O)[C@H](O)c3ccc(c(Cl)c3)Oc3cc2cc(c3O[C@@H]2O[C@H](CO)[C@@H](O)[C@H](O)[C@H]2O[C@H]2C[C@](C)(N)[C@H](O)[C@H](C)O2)Oc2ccc(cc2Cl)[C@H]1O	broth microdilution	ATCC 17978, cation-adjusted Mueller-Hinton broth			MIC	25 µM
CC(C)C[C@H](NC(=O)[C@H](CC(C)C)NC(=O)[C@H](CCCCN)NC(=O)[C@H](Cc1ccccc1)NC(=O)[C@@H](NC(=O)[C@H](CCCNC(=N)N)NC(=O)[C@@H](N)CCCCN)C(C)C)C(=O)N[C@@H](CCCCN)C(=O)N[C@@H](CCCNC(=N)N)C(=O)N[C@@H](Cc1ccc(O)cc1)C(=O)N[C@@H](Cc1c[nH]c2ccccc12)C(=O)N[C@@H](CCCNC(=N)N)C(=O)N[C@@H](CCC(N)=O)C(=O)N[C@@H](CC(C)C)C(=O)N[C@@H](CCCCN)C(=O)N[C@@H](CCCCN)C(=O)N1CCC[C@H]1C(=O)N[C@H](C(=O)N[C@@H](CCCNC(=N)N)C(=O)NCCOCCOCC(=O)O)C(C)C	Congo red staining	ATCC 10145	4 h, 37 °C		minimum concentration for visible aggregation	≥ 20 µM
CC(C)[C@H]1NC(=O)[C@H](Cc2ccccc2)NC(=O)[C@@H](C(C)C)NC(=O)[C@@H](C)NC(=O)[C@H](CO)NC(=O)[C@@H](Cc2c(-c3ccc(-c4ccc(-c5ccccc5)cc4)cc3)[nH]c3ccccc23)NC(=O)[C@@H](C)NC1=O	broth dilution				MIC90	> 50 µM
Nc1nc2ccc(S(=O)(=O)c3cn[nH]c3)cc2s1	pyocyanin production	PA14-lux	200 µM, 18 h	relative to: DMSO vehicle	inhibition	-6.39%
CC(C)C[C@H](NC(=O)[C@H](CCN)NC(=O)[C@H](CCN)NC(=O)[C@@H](Cc1ccccc1)NC(=O)[C@H](CC(C)C)NC(=O)[C@H](CCN)NC(=O)[C@H](CCN)NC(=O)[C@@H](CCN)NC(=O)CCSCCOC(=O)C(C)(C)C)C(N)=O		PAO1	24 h, 37 °C		MBC	> 128 µM
CC(C)[C@H]1NC(=O)[C@H](Cc2ccccc2)NC(=O)[C@@H](C(C)C)NC(=O)[C@@H](C)NC(=O)[C@H](CO)NC(=O)[C@@H](Cc2c(-c3ccc(-c4ccccc4)cc3)[nH]c3ccccc23)NC(=O)[C@@H](CO)NC1=O	broth dilution				MIC90	> 50 µM
O=C(O)CN(CC(=O)O)CP(=O)(O)O		VIM-2 and OXA-50 producer	32 µg/mL, added: meropenem		meropenem MIC	1 µg/mL
NCc1ccc(S(=O)(=O)c2ccc3nc(N)sc3c2)cn1	pyocyanin production	PA14-lux	200 µM, 18 h	relative to: DMSO vehicle	inhibition	-8.81%
C#CCCC1(CCC(=O)NCc2c(O)c(=O)cc(C)n2C)N=N1	microbial growth	PAO1			pIC50	5.34
Nc1nc2ccc(S(=O)(=O)c3cccnc3)cc2s1	pyocyanin production	PA14-lux	200 µM, 18 h	relative to: DMSO vehicle	inhibition	7.19%
CCCC(=O)C#Cc1ccc(F)c(F)c1			10 µM, 24 h	relative to: untreated	rhamnolipid production	45%
Nc1nc2ccc(S(=O)(=O)c3cn[nH]c3N)cc2s1	swarming area	PA14-lux	200 µM, 24 h	relative to: DMSO	swarming inhibition	86.8%
CCCC(=O)OCCSCCC(=O)N[C@H](CCN)C(=O)N[C@@H](CCN)C(=O)N[C@@H](CCN)C(=O)N[C@@H](CC(C)C)C(=O)N[C@H](Cc1ccccc1)C(=O)N[C@@H](CCN)C(=O)N[C@@H](CCN)C(=O)N[C@@H](CC(C)C)C(N)=O		PAO1	24 h, 37 °C		MBC	> 128 µM

Repeated from above:
Compound	test	test system	setting	how to read	quantity	result
CCC(=O)OCCSCCC(=O)N[C@H](CCN)C(=O)N[C@@H](CCN)C(=O)N[C@@H](CCN)C(=O)N[C@@H](CC(C)C)C(=O)N[C@H](Cc1ccccc1)C(=O)N[C@@H](CCN)C(=O)N[C@@H](CCN)C(=O)N[C@@H](CC(C)C)C(N)=O		PAO1	24 h, 37 °C		MBC	> 128 µM
N=C(N)NCCC[C@@H]1NC(=O)[C@H](CCCNC(=N)N)NC(=O)[C@@H](CCCNC(=N)N)NC(=O)[C@H](C(c2ccccc2)c2ccccc2)NC(=O)[C@H](C(c2ccccc2)c2ccccc2)NC(=O)[C@H](C(c2ccccc2)c2ccccc2)NC(=O)[C@H](CCCNC(=N)N)NC1=O		1188712, multidrug-resistant			MIC	32 µg/mL
Nc1nc2ccc(C(F)(F)F)cc2s1	pyocyanin production	PA14-lux	200 µM, 18 h	relative to: DMSO vehicle	inhibition	26%
